# Assay results gathered from unrelated publications.
# A part holds a random share of what one study measured. Substitutions count along the parent as printed.

# Set 1
# Target: Sal-like protein 4, full length isoform B (SALL4, Homo sapiens, UniProt Q9UJQ4-2, residues 1-616)
# Method: universal PBM
# Form: double-stranded DNA, one strand shown
# Sample: in vitro
# Concentration: not given
# Setting: 8-mer, flanks averaged, mean of replicates
# Reading: higher = stronger binding
# Residues (chain): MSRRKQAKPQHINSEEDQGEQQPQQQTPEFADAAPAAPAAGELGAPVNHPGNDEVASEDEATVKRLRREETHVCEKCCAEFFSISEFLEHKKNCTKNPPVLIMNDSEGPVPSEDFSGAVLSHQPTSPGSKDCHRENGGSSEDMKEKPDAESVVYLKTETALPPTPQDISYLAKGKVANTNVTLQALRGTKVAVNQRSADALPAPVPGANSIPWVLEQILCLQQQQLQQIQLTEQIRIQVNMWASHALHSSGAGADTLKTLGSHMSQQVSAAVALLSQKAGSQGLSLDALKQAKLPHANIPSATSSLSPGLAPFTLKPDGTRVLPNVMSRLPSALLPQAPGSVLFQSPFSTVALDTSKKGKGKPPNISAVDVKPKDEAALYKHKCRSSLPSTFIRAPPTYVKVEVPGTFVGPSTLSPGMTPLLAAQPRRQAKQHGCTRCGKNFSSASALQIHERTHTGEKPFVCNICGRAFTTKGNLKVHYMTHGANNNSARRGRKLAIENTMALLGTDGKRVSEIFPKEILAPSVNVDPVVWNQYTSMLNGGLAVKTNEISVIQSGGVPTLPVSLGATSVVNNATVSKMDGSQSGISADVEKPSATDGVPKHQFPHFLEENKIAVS
Strand,E-score
AAAAGCAA,0.186
AGCCAGTC,-0.152
CACCACCA,-0.225
GGAGGACC,-0.34
GACCGCGC,-0.282
AACCGGTG,-0.305
CATGATTA,0.331
CTATTCGC,0.0533
AAAGCACT,0.0134
AGGTACTA,0.0941
GATCCTGA,-0.0859

# Set 2
# Target: CCNE2, cyclin fold, Cln2 fusion (human)
# Method: yeast growth competition, sequencing
# Sample: yeast
# Setting: weak parent motif
# Baseline: not given
# Reading: higher = stronger binding
# Starting sequence: RB1 docking peptide (human); PKPLKKLRFDIEG
Change,normalised enrichment score
PKPLKKLRFMIEG [D10M],1.56
PKALKKLRFDIEG [P3A],0.826
PKPLKKHRFDIEG [L7H],0.636
PKPLKKLRLDIEG [F9L],0.714
PKPLKKLRFYIEG [D10Y],1.62
PKPLKKLRFDFEG [I11F],1.04

# Set 3
# Target: Histone acetyltransferase KAT6A, winged helix 1, GST fusion (KAT6A, Homo sapiens, UniProt Q92794, residues 1-85)
# Method: protein binding microarray
# Form: double-stranded DNA, one strand shown
# Sample: in vitro
# Concentration: not given
# Setting: 8-mer, flanks averaged, mean of 2 arrays, mostly near background
# Baseline: not given
# Reading: higher = stronger binding
# Residues (chain): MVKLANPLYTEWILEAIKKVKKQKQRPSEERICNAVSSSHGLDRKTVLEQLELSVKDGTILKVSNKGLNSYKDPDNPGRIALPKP
Strand,E-score
ACCTTTTG,-0.128
CCGCAGCC,0.152
ATGGCTGG,-0.202
CCACGAAG,-0.139
ACGGGGCG,0.306
GATTTGCC,-0.0914
AGAATGGC,-0.254
GCACGGCA,0.313
ATAGTCAG,-0.12
GTTCCCTA,-0.246

# Single results of other studies
Molecule,target,assay,test system,setting,scale,quantity,value
"PhoQ, residues 284 288 289 292 302 303 NLSRDF","PhoP, residues 12 14 15 18 19 STWGI (Escherichia coli, UniProt P23836)","Sort-seq, measured: YFP reporter",E. coli,"PhoQ-PhoP variant library, together with: 10 µM Mg2+","baseline: high Mg2+ state, higher = stronger signaling",fold induction,10.7

# For quick reference, copied from above (set 3):
Strand,E-score
AGAATGGC,-0.254
GCACGGCA,0.313
ATAGTCAG,-0.12
GTTCCCTA,-0.246
